Assay results collected from several papers.
± gives the spread as reported. No end group written: not given here.
B1: bicyclic; chain AATCHCRRSCYSTEYSYGTCTVMGINHRFCCL (also: bicyclic or more (positions not given here))

Substance	target or system	test	test system	conditions	how to read	quantity	result
caspofungin			adult ICU patients, mITT, serum	dose not given, EOT		albumin	26.3 g/L
CTOP		RP-HPLC	HALO RP-amide column	25 µM, acetic acid/methanol, 25 min gradient		retention time	11.9 min
Rilpivirine docusate			water			equilibrium solubility	0.13 ± 0.1 µg/mL
colistin	Escherichia coli	broth microdilution	clinical isolate RKI-No_590/16			MIC	≤ 0.5 µg/mL
coproporphyrin I			healthy human volunteers, spot urine	dose not given, pre-dose, median, added: ezetimibe plus rifampin		urine concentration	1.68 nM
B1		sedimentation velocity ultracentrifugation	10 mM Tris-maleate	160 µM, pH 6.4, 20 °C		sedimentation coefficient s20,w	0.783 S
Teicoplanin		ultrafiltration, UPLC-MS/MS	haematology and ICU patients, patient serum	37 °C		protein binding	79%
GSGAGSETKM	human MAGI1-3/6 PDZ construct (MBP fusion)	automated holdup	peptide, crude extract	concentration not given, corrected by standard peak, unit not given	baseline: biotin control resin, higher = stronger binding	binding intensity	-0.0382
regorafenib N-β-glucuronide			mouse plasma	25 ng/mL, 6 months, -80 °C		long-term stability accuracy	99.5%
Polymyxin B		untargeted LC-MS metabolomics, measured: L-valine	Sprague-Dawley rat, right cerebral cortex	intracerebroventricular, 0.75 mg/kg, 1 h	baseline: NaCl control	log2 fold change	-6.7
GSGAGQITKV	human SCRIB PDZ3-4 tandem (MBP fusion)	automated holdup	peptide, crude extract	concentration not given, corrected by standard peak, unit not given	baseline: biotin control resin, higher = stronger binding	binding intensity	0.0701
FNA / CGLSGLGVA-NH2 ([18F]FNA-labelled, C-amide)		ex vivo gamma counting	peptide, healthy mice, large intestine	dose not given, 60 min		tissue uptake	0.34 %ID/g

Repeated from above:
Substance	target or system	test	test system	conditions	how to read	quantity	result
caspofungin			adult ICU patients, mITT, serum	dose not given, EOT		albumin	26.3 g/L
